Measurements collected from several papers.
A part holds a random share of what one study measured. “And” joins repeats or separate records; there may be more than shown.
Chain of UniProt O60285 (whole entry, looked up): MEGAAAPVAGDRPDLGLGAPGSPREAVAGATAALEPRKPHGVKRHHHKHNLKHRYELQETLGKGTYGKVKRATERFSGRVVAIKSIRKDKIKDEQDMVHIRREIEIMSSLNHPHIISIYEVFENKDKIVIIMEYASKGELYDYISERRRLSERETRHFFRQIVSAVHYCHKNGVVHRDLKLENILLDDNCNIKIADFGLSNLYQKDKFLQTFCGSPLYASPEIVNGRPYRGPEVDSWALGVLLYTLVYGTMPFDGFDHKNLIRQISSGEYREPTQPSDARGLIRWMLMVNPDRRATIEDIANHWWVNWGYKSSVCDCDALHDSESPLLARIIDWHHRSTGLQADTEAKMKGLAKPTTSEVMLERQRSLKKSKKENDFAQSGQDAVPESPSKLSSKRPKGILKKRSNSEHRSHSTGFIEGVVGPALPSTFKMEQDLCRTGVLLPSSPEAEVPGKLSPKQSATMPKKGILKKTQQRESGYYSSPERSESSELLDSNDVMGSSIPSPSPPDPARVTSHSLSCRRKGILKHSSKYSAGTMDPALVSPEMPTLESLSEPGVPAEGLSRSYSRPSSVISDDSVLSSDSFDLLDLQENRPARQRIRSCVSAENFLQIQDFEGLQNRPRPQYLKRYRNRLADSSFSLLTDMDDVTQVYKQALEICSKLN
Chain of UniProt Q00537 (whole entry, looked up): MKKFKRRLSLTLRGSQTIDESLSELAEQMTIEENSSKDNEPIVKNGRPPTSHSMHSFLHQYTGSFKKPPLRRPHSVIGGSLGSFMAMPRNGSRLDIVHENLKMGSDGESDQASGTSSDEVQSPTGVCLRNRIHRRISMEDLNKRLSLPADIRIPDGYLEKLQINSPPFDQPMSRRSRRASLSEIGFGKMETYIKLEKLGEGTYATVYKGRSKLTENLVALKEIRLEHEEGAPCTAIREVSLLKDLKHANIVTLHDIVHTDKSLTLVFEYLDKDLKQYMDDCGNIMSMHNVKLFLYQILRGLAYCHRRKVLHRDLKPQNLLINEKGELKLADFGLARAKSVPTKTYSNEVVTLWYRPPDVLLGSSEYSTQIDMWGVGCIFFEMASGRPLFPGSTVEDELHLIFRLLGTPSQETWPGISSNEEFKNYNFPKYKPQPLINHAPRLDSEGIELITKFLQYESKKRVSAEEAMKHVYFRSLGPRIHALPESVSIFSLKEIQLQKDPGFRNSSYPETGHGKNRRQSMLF
Chain of UniProt Q9P1W9 (whole entry, looked up): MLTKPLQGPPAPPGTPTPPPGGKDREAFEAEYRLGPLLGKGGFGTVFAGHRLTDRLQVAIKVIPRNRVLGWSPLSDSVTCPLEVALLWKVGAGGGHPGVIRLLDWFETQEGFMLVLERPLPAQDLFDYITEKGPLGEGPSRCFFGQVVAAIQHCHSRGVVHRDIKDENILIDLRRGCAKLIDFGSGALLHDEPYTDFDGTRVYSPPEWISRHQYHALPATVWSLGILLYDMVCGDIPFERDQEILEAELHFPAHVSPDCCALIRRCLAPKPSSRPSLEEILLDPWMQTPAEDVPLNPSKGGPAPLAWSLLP

Study 1
Organism: Sarcocystis neurona
Read-out: parasite activity
Tested at: 10 µM
Time: 96 h
| Structure (SMILES) | activity class |
| --- | --- |
| Clc1ccc(COC(Cn2ccnc2)c2ccc(Cl)cc2Cl)c(Cl)c1 (stereo not drawn) | inactive |
| CCCC1O[C@@H]2C[C@H]3[C@@H]4CCC5=CC(=O)C=C[C@]5(C)[C@H]4[C@@H](O)C[C@]3(C)[C@]2(C(=O)CO)O1 (stereo partly drawn) | inactive |
| CC(=O)Nc1ccc(CC(=O)O)cc1 | inactive |
| Cc1ccc(O)c([C@H](CCN(C(C)C)C(C)C)c2ccccc2)c1 | inactive |
| N[C@@H]1CON=C1O | inactive |
| C[C@@H]1C[C@H]2[C@@H]3CCC4=CC(=O)C=C[C@]4(C)[C@@]3(F)[C@@H](O)C[C@]2(C)[C@@]1(O)C(=O)CO | inactive |
| CN1CCN(C2=Nc3cc(F)ccc3Cc3ccccc32)CC1 | inactive |
| CCOC(=O)O[C@]1(C(=O)OCCl)CC[C@H]2[C@@H]3CCC4=CC(=O)C=C[C@]4(C)[C@H]3[C@@H](O)C[C@@]21C | inactive |
| Cc1c2oc3c(C)ccc(C(=O)N[C@@H]4C(=O)N[C@H](C(C)C)C(=O)N5CCC[C@H]5C(=O)N(C)CC(=O)N(C)[C@@H](C(C)C)C(=O)O[C@@H]4C)c3nc-2c(C(=O)N[C@@H]2C(=O)N[C@H](C(C)C)C(=O)N3CCC[C@H]3C(=O)N(C)CC(=O)N(C)[C@@H](C(C)C)C(=O)O[C@@H]2C)c(N)c1=O | inactive |
| O=C1c2cccc3c2[C@H](CCC3)CN1[C@@H]1CN2CCC1CC2 | inactive |

Study 2
Target: DNA polymerase theta, ATPase domain (POLQ, Homo sapiens, UniProt O75417)
Chain of UniProt O75417 (whole entry, unmodified, looked up): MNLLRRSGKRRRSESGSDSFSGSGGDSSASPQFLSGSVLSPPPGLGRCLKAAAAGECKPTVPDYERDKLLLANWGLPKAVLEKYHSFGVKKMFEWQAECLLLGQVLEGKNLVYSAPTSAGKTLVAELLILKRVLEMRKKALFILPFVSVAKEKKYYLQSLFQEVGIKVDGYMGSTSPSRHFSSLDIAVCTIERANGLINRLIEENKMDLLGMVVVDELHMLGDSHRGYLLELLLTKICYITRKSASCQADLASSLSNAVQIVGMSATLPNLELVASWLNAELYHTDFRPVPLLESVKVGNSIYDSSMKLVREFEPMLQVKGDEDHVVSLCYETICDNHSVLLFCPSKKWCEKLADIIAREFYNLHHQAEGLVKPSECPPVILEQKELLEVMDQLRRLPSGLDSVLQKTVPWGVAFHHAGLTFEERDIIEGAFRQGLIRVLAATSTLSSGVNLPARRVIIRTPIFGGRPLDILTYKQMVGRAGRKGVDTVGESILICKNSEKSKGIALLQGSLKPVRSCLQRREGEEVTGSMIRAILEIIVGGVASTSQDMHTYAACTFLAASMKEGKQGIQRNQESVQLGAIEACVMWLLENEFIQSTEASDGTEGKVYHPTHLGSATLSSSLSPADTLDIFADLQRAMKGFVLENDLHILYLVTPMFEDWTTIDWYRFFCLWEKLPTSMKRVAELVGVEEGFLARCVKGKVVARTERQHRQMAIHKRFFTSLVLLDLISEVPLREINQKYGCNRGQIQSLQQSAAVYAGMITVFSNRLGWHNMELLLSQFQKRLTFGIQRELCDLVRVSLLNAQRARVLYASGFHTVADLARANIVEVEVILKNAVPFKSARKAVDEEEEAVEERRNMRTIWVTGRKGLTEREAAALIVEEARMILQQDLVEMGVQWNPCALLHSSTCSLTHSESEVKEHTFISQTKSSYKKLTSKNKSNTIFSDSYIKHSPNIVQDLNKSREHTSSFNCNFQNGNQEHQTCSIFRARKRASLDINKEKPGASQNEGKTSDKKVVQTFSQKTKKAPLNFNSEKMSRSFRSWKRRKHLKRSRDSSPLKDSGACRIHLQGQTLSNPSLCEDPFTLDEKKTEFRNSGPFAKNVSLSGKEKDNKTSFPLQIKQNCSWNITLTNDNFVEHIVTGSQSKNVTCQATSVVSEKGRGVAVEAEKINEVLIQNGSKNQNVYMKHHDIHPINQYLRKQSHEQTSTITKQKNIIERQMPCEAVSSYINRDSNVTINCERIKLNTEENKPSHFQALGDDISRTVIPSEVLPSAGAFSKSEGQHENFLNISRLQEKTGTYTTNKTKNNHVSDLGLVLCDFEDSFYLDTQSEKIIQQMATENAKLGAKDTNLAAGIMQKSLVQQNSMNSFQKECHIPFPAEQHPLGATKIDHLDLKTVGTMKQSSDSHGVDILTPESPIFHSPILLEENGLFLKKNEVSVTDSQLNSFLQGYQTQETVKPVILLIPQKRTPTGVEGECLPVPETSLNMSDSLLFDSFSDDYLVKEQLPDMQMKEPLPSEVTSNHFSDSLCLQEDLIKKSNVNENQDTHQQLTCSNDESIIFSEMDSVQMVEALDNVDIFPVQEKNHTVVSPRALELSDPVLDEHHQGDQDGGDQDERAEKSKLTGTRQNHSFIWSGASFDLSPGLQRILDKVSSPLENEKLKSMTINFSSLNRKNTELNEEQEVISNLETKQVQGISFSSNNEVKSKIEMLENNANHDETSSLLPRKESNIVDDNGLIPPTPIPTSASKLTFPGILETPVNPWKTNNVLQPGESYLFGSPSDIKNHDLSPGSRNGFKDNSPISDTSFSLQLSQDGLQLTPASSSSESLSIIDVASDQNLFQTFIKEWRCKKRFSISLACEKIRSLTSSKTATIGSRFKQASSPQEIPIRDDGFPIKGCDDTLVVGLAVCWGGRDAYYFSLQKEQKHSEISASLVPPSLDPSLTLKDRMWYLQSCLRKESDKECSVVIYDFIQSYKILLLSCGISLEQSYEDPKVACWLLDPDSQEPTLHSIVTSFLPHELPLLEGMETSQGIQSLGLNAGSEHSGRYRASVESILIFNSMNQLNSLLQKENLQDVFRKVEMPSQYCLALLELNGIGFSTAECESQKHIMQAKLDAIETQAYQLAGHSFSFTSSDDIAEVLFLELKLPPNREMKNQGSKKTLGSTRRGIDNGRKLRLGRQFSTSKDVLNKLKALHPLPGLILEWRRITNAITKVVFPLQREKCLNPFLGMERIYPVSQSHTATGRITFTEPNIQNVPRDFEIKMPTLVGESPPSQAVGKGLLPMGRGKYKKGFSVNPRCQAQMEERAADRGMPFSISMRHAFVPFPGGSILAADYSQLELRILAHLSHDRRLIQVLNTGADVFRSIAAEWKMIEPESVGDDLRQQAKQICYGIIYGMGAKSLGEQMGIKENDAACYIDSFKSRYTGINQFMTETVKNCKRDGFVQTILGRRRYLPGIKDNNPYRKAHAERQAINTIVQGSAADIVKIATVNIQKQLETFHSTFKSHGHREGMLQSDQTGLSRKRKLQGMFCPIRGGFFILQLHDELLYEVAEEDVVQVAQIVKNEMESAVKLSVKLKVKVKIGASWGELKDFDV
Read-out: enzyme activity
Mode: inhibitor
Tested at: 77 µM
Reference: untreated
| Structure (SMILES) | remaining activity |
| --- | --- |
| N[C@@H](COP(=O)(O)O)C(=O)O | 101% |
| Nc1[nH]nc2nnc(-c3c(-c4ccccc4)nn4ccccc34)cc12 | 105% |
| Oc1cc2c(cc1O)CN(C(=S)NCCc1ccc(Cl)cc1)CCC2 | 99.8% |
| CCCc1c(-c2ccc(O)cc2)nn(-c2ccc(O)cc2)c1-c1ccc(O)cc1 | 112% |
| COc1ccc(-c2ccc3cc(C(=O)O)ccc3c2)cc1[C@]12C[C@H]3C[C@H](C[C@H](C3)C1)C2 | 103% |
| CN1CCc2c(c3ccccc3n2Cc2ccc(C(=O)NO)cc2)C1 | 85.1% and 94.8% |
| NC(=O)Nc1sc(-c2ccccc2)cc1C(N)=O | 117% |
| O=C(O)CNC(=O)C(CS)Cc1ccccc1 (stereo not drawn) | 93% |
| O=C1CCC[C@@H]2[C@H]3CCC[N+]4([O-])CCC[C@@H](CN12)[C@@H]34 (stereo partly drawn) | 96% |
| CC[C@H](C)C(=O)O[C@H]1C[C@@H](C)C=C2C=C[C@H](C)[C@H](CC[C@@H]3C[C@@H](O)CC(=O)O3)[C@H]21 | 101% and 98.2% |
| O=C(O)CCCC[C@@H]1SC[C@@H]2NC(=O)N[C@@H]21 | 95.2% and 107% |

Study 3
SMILES: O=C(O)[C@H]1[C@H](Cn2nnc3ccccc3c2=O)CC[C@@H]1C(=O)c1ccc(OCCC2CCOCC2)cc1
Read-out: cell-free assay
Method: competition with immobilised ligand
Tested at: 1 µM
| target | remaining binding |
| --- | --- |
| Phosphatidylinositol 4,5-bisphosphate 3-kinase catalytic subunit alpha isoform (PIK3CA, Homo sapiens, UniProt P42336, H1047L) | 71% |
| NUAK family SNF1-like kinase 1 (NUAK1, Homo sapiens, UniProt O60285) | 71% |
| STE20/SPS1-related proline-alanine-rich protein kinase (STK39, Homo sapiens, UniProt Q9UEW8) | 95% |
| Serine/threonine-protein kinase MARK2 (MARK2, Homo sapiens, UniProt Q7KZI7) | 100% |
| Cyclin-dependent kinase 17 (CDK17, Homo sapiens, UniProt Q00537) | 74% |
| Tyrosine-protein kinase ABL2 (ABL2, Homo sapiens, UniProt P42684) | 99% |
| Serine/threonine-protein kinase pim-2 (PIM2, Homo sapiens, UniProt Q9P1W9) | 96% |
| Interleukin-1 receptor-associated kinase 1 (IRAK1, Homo sapiens, UniProt P51617) | 70% |
| 1-phosphatidylinositol 3-phosphate 5-kinase (PIKFYVE, Homo sapiens, UniProt Q9Y2I7) | 72% |
| Phosphatidylinositol 3-kinase C2 domain-containing subunit gamma (PIK3C2G, Homo sapiens, UniProt O75747) | 99% |
| Serine/threonine-protein kinase 32B (STK32B, Homo sapiens, UniProt Q9NY57) | 100% |
| Death-associated protein kinase 3 (DAPK3, Homo sapiens, UniProt O43293) | 99% |
| Serine/threonine-protein kinase D1 (PRKD1, Homo sapiens, UniProt Q15139) | 85% |
| Proto-oncogene tyrosine-protein kinase receptor Ret (RET, Homo sapiens, UniProt P07949, V804M) | 96% |
| Receptor-type tyrosine-protein kinase FLT3 (FLT3, Homo sapiens, UniProt P36888) | 99% |
| Serine/threonine-protein kinase NIM1 (NIM1K, Homo sapiens, UniProt Q8IY84) | 93% |
| Serine/threonine-protein kinase TAO1 (TAOK1, Homo sapiens, UniProt Q7L7X3) | 100% |

Study 4
Compound: CC(C)n1cnc(-c2ccc(F)cc2)c1-c1ncc(C(=O)Nc2ccc(N3CCN(C)CC3)cc2)[nH]1
Method: phase 2a trial
Species: idiopathic pulmonary fibrosis patients
| dose | notes | patients with fatigue |
| --- | --- | --- |
| all arms pooled | grade 2 emergent event | 0% |
| 60 mg once daily | grade 5 emergent event | 0% |
| 60 mg once daily | grade 1 emergent event | 0% |
| 30 mg once daily | grade 5 emergent event | 0% |
| all arms pooled | grade 3 emergent event | 0% |
| 30 mg once daily | grade 2 emergent event | 0% |
| 30 mg once daily | grade 4 emergent event | 0% |

For quick reference, copied from above (study 2):
| Structure (SMILES) | remaining activity |
| --- | --- |
| N[C@@H](COP(=O)(O)O)C(=O)O | 101% |
| Nc1[nH]nc2nnc(-c3c(-c4ccccc4)nn4ccccc34)cc12 | 105% |
| Oc1cc2c(cc1O)CN(C(=S)NCCc1ccc(Cl)cc1)CCC2 | 99.8% |
| CCCc1c(-c2ccc(O)cc2)nn(-c2ccc(O)cc2)c1-c1ccc(O)cc1 | 112% |
| COc1ccc(-c2ccc3cc(C(=O)O)ccc3c2)cc1[C@]12C[C@H]3C[C@H](C[C@H](C3)C1)C2 | 103% |
